Results gathered from unrelated publications.
Compare with care: the assays were run in different laboratories.

For `CN1CCN(C2(CNC3CCN(c4cccc(-c5cc6cc(F)ccc6[nH]5)c4)CC3)CCC2)CC1`, the GI50 was 1840 nM (SK-OV-3).
The IC50 of `COCC(=O)O[C@]1(CCN(C)CCCc2nc3ccccc3[nH]2)CCc2cc(F)ccc2[C@@H]1C(C)C` is reported as 398 nM (Plasmodium falciparum; W2).
For `Nc1ncnc2c1ncn2[C@@H]1O[C@@H]2COP(=O)(O)O[C@H]3[C@@H](O)[C@H](n4cnc5c(=O)[nH]cnc54)O[C@@H]3COP(=O)(O)O[C@H]2[C@H]1O`, “pathway fold enrichment” read 2.23 (HFF-1; RNA sequencing, measured: Signaling by Rho GTPases; downregulated pathway; reference: Zika virus alone).
With `COc1ccc2c(c1)[nH]c1c(C)nccc12` the DNA methylation was 88% (DU-145; bisulfite pyrosequencing, measured: RASSF1A promoter CpG site 19; 10 µM, 16 h).
For `Nc1ncc(-c2nc(N3CCOCC3)nc(N3CCOCC3)n2)c(C(F)F)n1`, the GI50 was 22 nM (A204; 72 h).
`CC(C)CN1CCc2ccc(Br)cc21` has an IC50 of 1260 nM (Plasmodium falciparum; GB4).
With `COc1cc(CCC[P+](c2ccccc2)(c2ccccc2)c2ccccc2)c(OC)c2c1OCO2.[I-]` the mean Log10GI50 was -5.78 log M (NCI60 panel; SRB).
For `COc1c(C)c2c(c(O)c1C/C=C(\C)CCC(=O)O)C(=O)OC2`, the IC50 was 708 nM (uterus cancer cell lines; cell proliferation; average over lines).
With `COc1c(CCC[P+](c2ccccc2)(c2ccccc2)c2ccccc2)cc2c(c1OC)OCO2.[I-]` the LC50 was -4.56 log M (SNB-75; SRB).
Under “normalized enrichment score”, `C/C=C(/C)C(=O)O[C@H]1C(C)=C2[C@H]([C@@H]1OC(=O)CCCCCCC)[C@@](C)(OC(C)=O)C[C@H](OC(=O)CCC)[C@@]1(O)[C@H]2OC(=O)[C@@]1(C)O` is recorded as 1.01 (HEK-293T; RNA-seq GSEA, measured: Hallmark UV response down; 500 nM, 6 h; direction not given).

Repeated from above:
For `Nc1ncc(-c2nc(N3CCOCC3)nc(N3CCOCC3)n2)c(C(F)F)n1`, the GI50 was 22 nM (A204; 72 h).
